# Published values gathered from unrelated publications.
# ± marks the error that the study gave.
SMILES,target or system,test,test system,setting,scale,endpoint,result
Cc1cc2cc(C#N)ccc2c(C)c1Nc1ncnc(Nc2ccc(C#N)cc2)n1,HIV-1 K103N/Y181C,viral replication,T-cells,,,EC50,< 0.01 µM
Cc1cc(/C=C/C#N)cc(C)c1-n1cnc2cnc(Nc3ccc4cc(/C=C/C#N)ccc4c3)nc21,HIV-1,"viral replication, single-round infection",RT mutant V106A,,,EC50,> 5 µM
O=C(NCc1ccc(F)cc1F)c1cn2cc[nH]c(=O)c2c(O)c1=O,human immunodeficiency virus 1,single-round vector infection,integrase R263K,,,EC50,0.0542 ± 0.0027 µM
Cc1cccc(N2CCN(C(=O)C3CCN(Cc4nc(-c5ccc(Cl)cc5)oc4C)CC3)CC2)c1C,SARS-CoV-2,cytopathic effect,USA_WA1/2020,"retest, 8-point, duplicates",,efficacy,12.1%
Cn1cnc(Cn2c(=O)[nH]/c(=N\c3cc4cn(C)nc4cc3Cl)n(Cc3cc(F)c(F)cc3F)c2=O)n1,,,"human, normal renal function","oral, 375 mg, single dose, geometric mean",,renal clearance,0.935 mL/min
CC(C)CCCC(C)CCN1CCn2cc(C(=O)NCc3ccc(F)cc3F)c(=O)c(O)c2C1=O (centres unmarked),human immunodeficiency virus 1,single-round vector infection,integrase R263K,,,EC50,0.0682 ± 0.008 µM
NC(=O)CCNC(=O)c1ccccc1S,HIV-1,viral replication,"human PBMC, subtype A 92UG029, CXCR4-tropic clinical isolate",,,EC50,6.82 ± 2.13 µM
C[C@H](NP(=O)(OC[C@@]1(F)O[C@@H](n2ccc(N)nc2=O)C(F)(F)[C@@H]1O)Oc1ccccc1)C(=O)OCc1ccccc1 (some centres unmarked),varicella-zoster virus,"viral replication, plaque reduction","HEL fibroblasts, TK-deficient 07-1",,,EC50,2 to 3 µM
Cc1cn([C@H]2C[C@H](N=[N+]=[N-])[C@@H](CO)O2)c(=O)[nH]c1=O,HIV-1,viral replication,"human PBMC, subtype A 92RW009, CCR5-tropic clinical isolate",,,EC50,0.00403 ± 0.00206 µM
Cc1cc(/C=C/C#N)cc(C)c1Nc1nc(Nc2ccc(/C=C/C#N)cc2)ncc1N,HIV-1,"viral replication, single-round infection",RT mutant K101E/M184I,,,EC50,0.0031 ± 0.0006 µM
Cc1ccc(Nc2ccnc(N3CCC(C(=O)NCCCc4ccccc4)CC3)n2)cc1,SARS-CoV-2,cytopathic effect,USA_WA1/2020,"retest, 8-point, duplicates",,maximum response,59.3%
CCCC(=O)OCSc1ccccc1C(=O)NCCC(N)=O,HIV-1,viral replication,"human PBMC, subtype G JV1083, CCR5-tropic clinical isolate",,,EC50,3.45 ± 1.9 µM
CCc1c(C(=O)C(N)=O)c2c(OCC(=O)O)cccc2n1Cc1ccccc1,,,"PB population, mouse","intravenous, 120 µg/mouse, 24 h, preincubated with venom, with: Daboia russelii venom 2.5 x LD50",,survival,100%
Cc1cc(/C=C/C#N)cc(C)c1Nc1nc(Nc2ccc3cc(C#N)ccc3c2)ncc1N,HIV-1,"viral replication, single-round infection",RT mutant V106A/F227L/L234I,,,EC50,< 0.0054 µM
CC[C@H](C)[C@H](NC(=O)[C@H](CC(C)C)NC(=O)[C@H](Cc1c[nH]c2ccccc12)NC(=O)[C@H](CCC(N)=O)NC(=O)[C@@H](NC(=O)[C@H](Cc1ccccc1)NC(=O)[C@H](C)NC(=O)[C@H](CCCCNC(=O)COCCOCCNC(=O)COCCOCCNC(=O)CC[C@H](NC(=O)CCCCCCCCCCCCCCCCCCC(=O)O)C(=O)O)NC(=O)[C@H](CCC(N)=O)NC(=O)[C@H](C)NC(=O)[C@@H](NC(=O)[C@H](CCCCN)NC(=O)[C@H](CC(=O)O)NC(=O)[C@H](CC(C)C)NC(=O)C(C)(C)NC(=O)[C@@H](NC(=O)[C@H](CO)NC(=O)[C@H](Cc1ccc(O)cc1)NC(=O)[C@H](CC(=O)O)NC(=O)[C@H](CO)NC(=O)[C@@H](NC(=O)[C@H](Cc1ccccc1)NC(=O)[C@@H](NC(=O)CNC(=O)[C@H](CCC(=O)O)NC(=O)C(C)(C)NC(=O)[C@@H](N)Cc1ccc(O)cc1)[C@@H](C)O)[C@@H](C)O)[C@@H](C)CC)[C@@H](C)CC)C(C)C)C(=O)N[C@@H](C)C(=O)NCC(=O)NCC(=O)N1CCC[C@H]1C(=O)N[C@@H](CO)C(=O)N[C@@H](CO)C(=O)NCC(=O)N[C@@H](C)C(=O)N1CCC[C@H]1C(=O)N1CCC[C@H]1C(=O)N1CCC[C@H]1C(=O)N[C@@H](CO)C(N)=O,,item: anti-drug antibodies,healthy human subjects,"5/5/8/10 mg escalating, titer ≥1:20",,subjects with treatment-induced ADA,14.3%
COCC(C)n1ccn2cc(C(=O)NCc3ccc(F)cc3F)c(=O)c(O)c2c1=O (centres unmarked),human immunodeficiency virus 1,single-round vector infection,integrase R263K,,,EC50,0.0028 ± 0.0003 µM
NC(=O)c1ncn([C@@H]2O[C@H](CO)[C@@H](O)[C@H]2O)n1,Japanese encephalitis virus,viral replication,BHK-21,72 h,,EC50,33 µM
Cn1c(Cn2ccc(C(F)(F)F)c(Oc3cc(Cl)cc(C#N)c3)c2=O)n[nH]c1=O,HIV-1,"viral replication, single-round infection",RT mutant L234I,,,EC50,0.0068 ± 0.0025 µM
CNC(=O)[C@@H](NC(=O)[C@H](CC(C)C)[C@H](O)C(=O)NO)C(C)(C)C,human fibrinogen,SDS-PAGE,Daboia russelii,"concentration not given, unit not given, with: KL venom",baseline: untreated fibrinogen,remaining fibrinogen Aα chain,0.673
Cc1cc(/C=C/C#N)cc(C)c1Nc1ccnc(Nc2ccc(C#N)cc2)n1,HIV-1 GH9,viral replication,"TZM-bl, K101P/K103N/V108I",,,EC50,> 0.273 µM
COC(CN1CCn2cc(C(=O)NCc3ccc(F)cc3F)c(=O)c(O)c2C1=O)OC,human immunodeficiency virus 1,single-round vector infection,integrase S230N,,,EC50,0.0086 ± 0.0012 µM
Nc1ncnc2c([C@@H]3N[C@H](CO)[C@@H](O)[C@H]3O)c[nH]c12,Yellow fever virus,viral replication,"Vero 76, 17D",94.7 µM,,inhibition,94.6%
O=C1Nc2ccc(Cl)cc2[C@@](C#CC2CC2)(C(F)(F)F)O1,HIV-1,"viral replication, single-round infection",RT mutant M184I,,,EC50,0.0002 ± 4e-05 µM
CC(C)=CCC/C(C)=C/Cn1ccn2cc(C(=O)NCc3ccc(F)cc3F)c(=O)c(O)c2c1=O,human immunodeficiency virus 1,single-round vector infection,integrase R263K,,,EC50,0.122 ± 0.0055 µM
Cc1cc(/C=C/C#N)cc(C)c1-n1cnc2cnc(Nc3ccc(/C=C/C#N)cc3)nc21,HIV-1,"viral replication, single-round infection",RT mutant K101P,,,EC50,0.28 ± 0.027 µM
COC(Cn1ccn2cc(C(=O)NCc3ccc(F)cc3F)c(=O)c(O)c2c1=O)OC,human immunodeficiency virus 1,single-round vector infection,integrase S230N,,,EC50,0.0052 ± 0.0007 µM

# A few entries again:
SMILES,target or system,test,test system,setting,scale,endpoint,result
COCC(C)n1ccn2cc(C(=O)NCc3ccc(F)cc3F)c(=O)c(O)c2c1=O (centres unmarked),human immunodeficiency virus 1,single-round vector infection,integrase R263K,,,EC50,0.0028 ± 0.0003 µM
Cc1cc(/C=C/C#N)cc(C)c1Nc1nc(Nc2ccc(/C=C/C#N)cc2)ncc1N,HIV-1,"viral replication, single-round infection",RT mutant K101E/M184I,,,EC50,0.0031 ± 0.0006 µM
O=C(NCc1ccc(F)cc1F)c1cn2cc[nH]c(=O)c2c(O)c1=O,human immunodeficiency virus 1,single-round vector infection,integrase R263K,,,EC50,0.0542 ± 0.0027 µM
O=C1Nc2ccc(Cl)cc2[C@@](C#CC2CC2)(C(F)(F)F)O1,HIV-1,"viral replication, single-round infection",RT mutant M184I,,,EC50,0.0002 ± 4e-05 µM
